Published values pooled from the literature.
Each numbered part is a random draw from the data of one study; scales do not carry over between parts. Substitutions count along the parent as printed.
Chain of UniProt Q9C5W9 (whole entry, looked up): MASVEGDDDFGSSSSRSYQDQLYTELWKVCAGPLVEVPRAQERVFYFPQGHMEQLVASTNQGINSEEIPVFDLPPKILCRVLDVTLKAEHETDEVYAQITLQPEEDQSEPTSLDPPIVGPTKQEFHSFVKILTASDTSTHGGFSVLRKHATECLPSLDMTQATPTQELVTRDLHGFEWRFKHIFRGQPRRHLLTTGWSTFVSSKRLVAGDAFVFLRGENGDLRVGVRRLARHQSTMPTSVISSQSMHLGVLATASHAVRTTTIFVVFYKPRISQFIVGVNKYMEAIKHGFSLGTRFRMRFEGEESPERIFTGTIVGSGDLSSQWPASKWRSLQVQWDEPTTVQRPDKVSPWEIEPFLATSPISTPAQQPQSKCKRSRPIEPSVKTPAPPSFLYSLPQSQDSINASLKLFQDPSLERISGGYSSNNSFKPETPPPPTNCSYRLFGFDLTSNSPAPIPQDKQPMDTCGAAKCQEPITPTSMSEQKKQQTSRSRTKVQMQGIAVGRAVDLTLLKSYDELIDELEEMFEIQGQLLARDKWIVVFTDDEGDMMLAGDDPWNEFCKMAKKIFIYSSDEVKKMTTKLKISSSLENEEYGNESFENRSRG
Chain of UniProt Q9XED8 (whole entry, looked up): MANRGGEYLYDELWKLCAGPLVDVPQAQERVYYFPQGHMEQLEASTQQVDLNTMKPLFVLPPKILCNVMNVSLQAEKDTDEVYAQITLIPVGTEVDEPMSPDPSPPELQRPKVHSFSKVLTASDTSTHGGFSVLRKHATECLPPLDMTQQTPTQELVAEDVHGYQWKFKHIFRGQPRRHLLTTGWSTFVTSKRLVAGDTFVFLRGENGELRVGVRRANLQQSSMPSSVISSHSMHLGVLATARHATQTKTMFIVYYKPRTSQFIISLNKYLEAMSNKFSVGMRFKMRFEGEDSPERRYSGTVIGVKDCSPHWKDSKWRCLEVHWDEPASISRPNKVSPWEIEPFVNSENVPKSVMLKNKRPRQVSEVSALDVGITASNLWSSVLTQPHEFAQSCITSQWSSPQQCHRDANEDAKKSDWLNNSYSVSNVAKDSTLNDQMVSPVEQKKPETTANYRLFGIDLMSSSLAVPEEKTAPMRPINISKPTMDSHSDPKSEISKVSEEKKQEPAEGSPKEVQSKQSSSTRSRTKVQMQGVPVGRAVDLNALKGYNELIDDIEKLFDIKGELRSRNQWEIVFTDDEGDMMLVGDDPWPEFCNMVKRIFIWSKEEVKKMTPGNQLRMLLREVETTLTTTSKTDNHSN
Chain of UniProt O24410 (whole entry, looked up): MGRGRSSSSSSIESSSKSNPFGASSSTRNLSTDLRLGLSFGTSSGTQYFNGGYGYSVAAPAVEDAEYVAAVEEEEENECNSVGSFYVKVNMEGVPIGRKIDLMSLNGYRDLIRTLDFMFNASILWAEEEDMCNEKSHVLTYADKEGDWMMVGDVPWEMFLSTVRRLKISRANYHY
Chain of UniProt Q38830 (whole entry, looked up): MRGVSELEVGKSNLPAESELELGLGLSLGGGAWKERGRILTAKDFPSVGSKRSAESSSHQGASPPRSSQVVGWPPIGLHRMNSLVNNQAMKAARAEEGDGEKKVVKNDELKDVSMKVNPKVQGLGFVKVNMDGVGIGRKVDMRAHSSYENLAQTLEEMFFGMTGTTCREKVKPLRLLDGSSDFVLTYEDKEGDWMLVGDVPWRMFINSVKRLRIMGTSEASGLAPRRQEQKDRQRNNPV
Chain of UniProt Q38831 (whole entry, looked up): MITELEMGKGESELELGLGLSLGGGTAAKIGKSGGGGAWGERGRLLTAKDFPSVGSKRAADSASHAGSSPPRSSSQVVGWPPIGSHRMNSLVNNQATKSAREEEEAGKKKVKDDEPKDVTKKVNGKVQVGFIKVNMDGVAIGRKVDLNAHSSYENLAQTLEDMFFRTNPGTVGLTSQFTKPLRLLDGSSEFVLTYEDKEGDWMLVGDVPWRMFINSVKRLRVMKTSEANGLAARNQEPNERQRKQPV
Chain of UniProt Q9C5X0 (whole entry, looked up): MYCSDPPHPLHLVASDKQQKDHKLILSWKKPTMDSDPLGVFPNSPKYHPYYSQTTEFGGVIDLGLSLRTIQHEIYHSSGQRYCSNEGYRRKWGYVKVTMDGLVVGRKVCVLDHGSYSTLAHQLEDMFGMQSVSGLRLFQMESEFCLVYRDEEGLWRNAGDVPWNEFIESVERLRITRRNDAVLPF
Chain of UniProt Q9ZPY6 (whole entry, looked up): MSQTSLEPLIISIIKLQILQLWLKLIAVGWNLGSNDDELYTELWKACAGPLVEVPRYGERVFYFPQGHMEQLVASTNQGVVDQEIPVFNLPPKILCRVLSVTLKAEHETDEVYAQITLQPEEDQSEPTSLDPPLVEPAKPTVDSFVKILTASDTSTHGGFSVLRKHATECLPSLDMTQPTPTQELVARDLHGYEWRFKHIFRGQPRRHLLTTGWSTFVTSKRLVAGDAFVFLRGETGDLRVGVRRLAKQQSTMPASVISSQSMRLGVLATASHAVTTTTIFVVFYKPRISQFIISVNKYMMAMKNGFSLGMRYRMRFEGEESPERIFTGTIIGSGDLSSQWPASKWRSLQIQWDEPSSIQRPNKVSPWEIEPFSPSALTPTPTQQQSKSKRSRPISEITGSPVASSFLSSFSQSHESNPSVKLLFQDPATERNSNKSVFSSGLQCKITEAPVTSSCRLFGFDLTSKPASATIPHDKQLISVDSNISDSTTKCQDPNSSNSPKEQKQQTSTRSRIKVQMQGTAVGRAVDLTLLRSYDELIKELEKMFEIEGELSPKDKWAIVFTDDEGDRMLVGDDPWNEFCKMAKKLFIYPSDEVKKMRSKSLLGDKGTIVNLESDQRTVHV

Series 1
Target: CCND2, cyclin fold, Cln2 fusion (human)
Technique: yeast growth competition, sequencing
Medium: yeast
Notes: weak parent motif
Reference: not given
Reading: higher = stronger binding
Quantity: normalised enrichment score
Starting sequence: viral docking peptide; TSVRRALFTGGSD
TSVVRALFTGGSD [R4V]: -0.0783
TSQRRALFTGGSD [V3Q]: -0.312
TIVRRALFTGGSD [S2I]: -0.12
TSVRRALFTGMSD [G11M]: -0.13
TSVRRCLFTGGSD [A6C]: 0.225
TSVRRALRTGGSD [F8R]: -0.0519
TSVRRALSTGGSD [F8S]: 0.333
TSVRRALFTMGSD [G10M]: -0.0409
TSVRRALFTGPSD [G11P]: 0.3
TSVRRALFTGGMD [S12M]: 0.0383
TSVRRAGFTGGSD [L7G]: 0.283
TSDRRALFTGGSD [V3D]: 0.107
TNVRRALFTGGSD [S2N]: 0.0802
TSVRRYLFTGGSD [A6Y]: -0.617
TSVRRFLFTGGSD [A6F]: -0.11

Series 2
Target: Ras GTPase-activating protein-binding protein 1, RRM domain (G3BP1, Homo sapiens, UniProt Q13283)
Chain of UniProt Q13283 (whole entry, looked up): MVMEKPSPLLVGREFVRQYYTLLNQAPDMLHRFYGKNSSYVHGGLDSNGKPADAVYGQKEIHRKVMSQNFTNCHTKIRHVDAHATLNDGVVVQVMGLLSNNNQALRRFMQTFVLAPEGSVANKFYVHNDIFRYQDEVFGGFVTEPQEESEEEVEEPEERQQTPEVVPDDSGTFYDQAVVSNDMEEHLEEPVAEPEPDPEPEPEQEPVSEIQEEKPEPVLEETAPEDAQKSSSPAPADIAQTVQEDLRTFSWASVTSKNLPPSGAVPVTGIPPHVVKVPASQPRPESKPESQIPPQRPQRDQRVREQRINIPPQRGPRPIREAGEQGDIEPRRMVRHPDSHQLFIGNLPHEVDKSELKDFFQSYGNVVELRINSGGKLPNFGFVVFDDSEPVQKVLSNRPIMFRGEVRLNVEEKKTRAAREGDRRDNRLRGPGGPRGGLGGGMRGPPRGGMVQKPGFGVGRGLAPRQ
Technique: RNA Bind-n-Seq
Molecule type: RNA
Medium: in vitro
Concentration: 1 µM
Notes: whole 134-nt RNA, ends assumed
With: 150 mM KCl
Reference: input library
Reading: higher = stronger binding
Quantity: log2 enrichment
Constant ends, left off below: GGGAGUUCUACAGUCCGACGAUC … UGGAAUUCUCGGGUGUCAAGG
CCUCAAGUCCUGUGCUACACAUCGUAUGUACCGAAUCGGCCGGGCCGGGCCGGAAAGUAUUAUGUUACGCCGUUCGGAUCUGCACUUCCA: -0.635
AAGUCCUGUGCUACACAUCGUAUGUACCGAAUCGGAAAAAAAGGUUUUUUUGGUGGAAAGUAUUAUGUUACGCCGUUCGGAUCUGCACUU: -0.332
CUCAAGUCCUGUGCUACACAUCGUAUGUACCGAAUCGGGAGGGAGGGUUUGGGAAAGUAUUAUGUUACGCCGUUCGGAUCUGCACUUCCA: 0.793
GUCCUGUGCUACACAUCGUAUGUACCGAAUCAAAUUUAAACCCCCAAACCCCCCCAAAAAAGUAUUAUGUUACGCCGUUCGGAUCUGCAC: -0.382
GCCACUGUUCACCAGUCCUACCCACACCAUGCCACACAGCUCCAUGCCCACCAGCCGCAGCCGGCUACCACGCCUACUGGAAGCCAGCCG: -0.606
GAAACUACCCGUGUGUAAAAAGAAGAUUGGCUUAAAAUGGCUACUGUGAUGGGAACAGUGUCUUAGGGAGAUGCAGCUUGGACUUGAGGU: -0.00836
CCUGUGCUACACAUCGUAUGUACCGAAUCGGGGAAAAAAAGGGGAGGGGUUUUUUUGGGGAAAGUAUUAUGUUACGCCGUUCGGAUCUGC: 0.523
ACCAUGCAGGUGGGCAUCUUUGGGAAGUGGGGCAAGGGGGGGAUAGGGAGGGGGGUAACACUUUGGGAACAGGUGGUGCCAGGUCGUUUC: 0.98

Series 3
Molecule: B1 (IAA3)
Technique: two-hybrid
Reading: higher = firmer interaction
Quantity: positive tests
B1: IAA3 (Arabidopsis thaliana, UniProt Q38822); chain MDEFVNLKETELRLGLPGTDNVCEAKERVSCCNNNNKRVLSTDTEKEIESSSRKTETSPPRKAQIVGWPPVRSYRKNNIQSKKNESEHEGQGIYVKVSMDGAPYLRKIDLSCYKGYSELLKALEVMFKFSVGEYFERDGYKGSDFVPTYEDKDGDWMLIGDVPWEMFICTCKRLRIMKGSEAKGLGCGV
IAA20 (Arabidopsis thaliana, UniProt O24410); weak activation fusion; reference: out of 4 tests: 2
ARF9 519-638 (Arabidopsis thaliana, UniProt Q9XED8); weak activation fusion; reference: out of 2 tests: 2
IAA13 (Arabidopsis thaliana, UniProt Q38831); reference: out of 4 tests: 2
IAA34 (Arabidopsis thaliana, UniProt Q9C5X0); reference: out of 2 tests: 2
IAA16 (Arabidopsis thaliana, UniProt O24407); reference: out of 4 tests: 4
IAA12 (Arabidopsis thaliana, UniProt Q38830); reference: out of 4 tests: 4
ARF11 500-622 (Arabidopsis thaliana, UniProt Q9ZPY6); reference: out of 4 tests: 0
ARF18 482-602 (Arabidopsis thaliana, UniProt Q9C5W9); reference: out of 4 tests: 0

Series 4
Target: Protein C-ets-1 (ETS1, Homo sapiens, UniProt P14921, residues 1-441, Y397A, full length assumed)
Chain of UniProt P14921 (whole entry, unmodified, looked up): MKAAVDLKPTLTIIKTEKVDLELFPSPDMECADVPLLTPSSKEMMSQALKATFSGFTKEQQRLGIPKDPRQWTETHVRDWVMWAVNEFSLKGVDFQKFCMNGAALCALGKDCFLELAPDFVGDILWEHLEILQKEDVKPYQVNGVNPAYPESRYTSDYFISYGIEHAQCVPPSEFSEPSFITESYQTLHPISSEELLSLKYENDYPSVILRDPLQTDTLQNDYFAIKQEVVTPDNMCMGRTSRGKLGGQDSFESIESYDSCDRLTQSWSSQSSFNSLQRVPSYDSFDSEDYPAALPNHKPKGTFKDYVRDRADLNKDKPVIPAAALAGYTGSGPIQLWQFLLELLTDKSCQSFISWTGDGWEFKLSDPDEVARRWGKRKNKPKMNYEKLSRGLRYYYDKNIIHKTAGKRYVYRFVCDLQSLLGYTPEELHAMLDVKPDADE
Technique: protein-binding microarray
Molecule type: double-stranded DNA, one strand shown
Medium: in vitro
Concentration: not given
Notes: k-mer, scored over probes, only values ≥0.25
Reading: higher = stronger binding
Quantity: E-score
CGGATGTA: 0.423
ACACAACA: 0.291
GCAAAATA: 0.253
ATTTCCCG: 0.259
AGTTTCCG: 0.294
CGCAAACC: 0.291
CATTTCCG: 0.42
GTACGACA: 0.287

Excerpt of the above (series 1):
TSVRRALFTGMSD [G11M]: -0.13
TSVRRCLFTGGSD [A6C]: 0.225
TSVRRALRTGGSD [F8R]: -0.0519
TSVRRALSTGGSD [F8S]: 0.333
